Measured values of several laboratories.
Every numbered part comes from another study and shows a few of its results, in no order.
Sequence of UniProt Q9Y243 (whole entry, looked up): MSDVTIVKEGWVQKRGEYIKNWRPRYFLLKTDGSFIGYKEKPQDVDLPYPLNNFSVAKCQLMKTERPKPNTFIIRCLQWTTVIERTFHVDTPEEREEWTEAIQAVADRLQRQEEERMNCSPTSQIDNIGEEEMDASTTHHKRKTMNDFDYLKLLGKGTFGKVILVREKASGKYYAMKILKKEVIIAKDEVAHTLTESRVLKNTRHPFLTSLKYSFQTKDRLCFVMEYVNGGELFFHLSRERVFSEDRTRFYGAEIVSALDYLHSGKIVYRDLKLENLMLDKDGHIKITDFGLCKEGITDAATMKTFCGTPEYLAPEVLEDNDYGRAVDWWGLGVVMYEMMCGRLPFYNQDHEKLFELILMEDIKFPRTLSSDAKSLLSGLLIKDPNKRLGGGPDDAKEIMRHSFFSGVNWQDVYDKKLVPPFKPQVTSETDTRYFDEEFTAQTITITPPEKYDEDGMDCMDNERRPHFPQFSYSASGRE

Study 1 — method: competition protein-binding microarray; form: double-stranded DNA, one strand shown; medium: in vitro; tested at: 2 µM; together with: Cbf1 competitor, 0.05 µM; reading: higher = stronger binding; endpoint: fluorescence intensity
Target: Phosphate system positive regulatory protein PHO4, full length, GST-tagged (PHO4, Saccharomyces cerevisiae, UniProt P07270, residues 1-312)
Notes: whole 60-bp probe, lowest competitor level
Target sequence (chain): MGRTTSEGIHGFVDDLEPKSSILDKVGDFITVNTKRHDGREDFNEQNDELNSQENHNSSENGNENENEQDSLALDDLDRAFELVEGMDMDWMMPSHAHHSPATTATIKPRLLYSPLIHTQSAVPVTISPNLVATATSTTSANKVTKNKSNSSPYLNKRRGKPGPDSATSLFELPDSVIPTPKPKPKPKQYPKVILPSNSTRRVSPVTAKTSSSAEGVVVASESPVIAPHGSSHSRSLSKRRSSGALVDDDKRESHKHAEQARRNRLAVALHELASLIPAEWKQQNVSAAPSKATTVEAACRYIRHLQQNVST
Sequence = CGGGGTTAAGTTTGTCACATCACTTGCTTGCAGCAGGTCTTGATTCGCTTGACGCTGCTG; value = 3970 a.u.
Sequence = AAATTACTAAGTTGCCAAGTGGGTGACGCCGTATGAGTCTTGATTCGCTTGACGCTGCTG; value = 4210 a.u.
Sequence = CAAGCGACTTACACAGACATGACAATTGCTCCAATTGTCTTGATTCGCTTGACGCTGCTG; value = 3940 a.u.
Sequence = TGACTTGAATTCCAACACGTGGATTATTTCCTCATTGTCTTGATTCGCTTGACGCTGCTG; value = 16500 a.u.
Sequence = CGGGGTTAAGTTTGCCCGGTGGGTGGCTTGCAGCAGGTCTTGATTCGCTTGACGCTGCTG; value = 5180 a.u.
Sequence = CGTCCTAGTGATTTTCACGTGACTTCCATGAGGAAGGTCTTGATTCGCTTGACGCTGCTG; value = 10300 a.u.
Sequence = ATTTTTGAGTCAGTTTCCGTGACGGTGAAGTGAGCGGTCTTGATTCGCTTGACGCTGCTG; value = 3320 a.u.
Sequence = CATACCCAACCTTGTCATGTGGGTGAAGATATTTGTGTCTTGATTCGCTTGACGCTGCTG; value = 10400 a.u.

Study 2 — method: protein binding microarray; form: double-stranded DNA, one strand shown; medium: in vitro; tested at: not given; baseline: not given; reading: higher = stronger binding; endpoint: E-score
Target: Histone acetyltransferase KAT6A, both winged helices, GST fusion (KAT6A, Homo sapiens, UniProt Q92794, residues 1-181)
Notes: 8-mer, flanks averaged, mean of 2 arrays, mostly near background
Construct (chain): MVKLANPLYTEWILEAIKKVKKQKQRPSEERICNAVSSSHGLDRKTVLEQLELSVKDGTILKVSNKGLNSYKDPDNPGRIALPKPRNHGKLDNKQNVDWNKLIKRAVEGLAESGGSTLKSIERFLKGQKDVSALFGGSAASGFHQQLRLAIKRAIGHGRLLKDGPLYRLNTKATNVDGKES
Sequence = ACAAACAA; value = -0.129
Sequence = GGTAGACA; value = -0.0586
Sequence = CGAGATTA; value = 0.0904
Sequence = ACCGAGCC; value = 0.112
Sequence = CCTATACG; value = -0.0969
Sequence = GTCTAAAA; value = -0.0105
Sequence = CGACACCC; value = -0.0326
Sequence = AAATCTTC; value = -0.0405

Study 3 — method: RNA Bind-n-Seq; form: RNA; medium: in vitro; tested at: 20 nM; notes: 6-mer, flanks averaged, single round; together with: 150 mM LiCl; baseline: input library; reading: higher = stronger binding; endpoint: 6-mer enrichment (R)
Target: TAR DNA-binding protein 43, full length, His tag (TARDBP, Homo sapiens, UniProt Q13148, residues 1-414)
Sequence = AAUCCG; value = 0.795
Sequence = UUGCAC; value = 0.952
Sequence = CCGCAU; value = 0.924
Sequence = UUAUAG; value = 0.995
Sequence = GUAGCG; value = 1.09
Sequence = ACCCGG; value = 0.939
Sequence = ACGGGA; value = 0.93
Sequence = CAUAGA; value = 0.831

Single results of other studies
Compound = Cn1sc(=O)n(Cc2ccccc2)c1=O; target = RAC-gamma serine/threonine-protein kinase (AKT3, Homo sapiens, UniProt Q9Y243); effect on = enzyme activity; mode = inhibitor; tested at = 0.5 µM; baseline = control; endpoint = remaining activity; value = 96.6%

Repeated from above (study 3):
Sequence = UUGCAC; value = 0.952
Sequence = CCGCAU; value = 0.924
Sequence = UUAUAG; value = 0.995
